Measurements gathered from unrelated publications.
Every numbered part comes from another study and shows a few of its results, in no order.

Study 1
Target: RING finger protein unkempt homolog, zinc fingers 1-6, GST-SBP tag (UNK, Homo sapiens, UniProt Q9C0B0, residues 30-357)
Method: RNA Bind-n-Seq
Form: RNA
Sample: in vitro
Concentration: not given
Setting: RNA with constant flanks, ends assumed
Relative to: input RNA pool
Direction: higher = stronger binding
Shared flanks, not repeated: GGGAGUUCUACAGUCCGACGAUC … CAACAGAGGAUUGAGCAUCA
Residues (chain): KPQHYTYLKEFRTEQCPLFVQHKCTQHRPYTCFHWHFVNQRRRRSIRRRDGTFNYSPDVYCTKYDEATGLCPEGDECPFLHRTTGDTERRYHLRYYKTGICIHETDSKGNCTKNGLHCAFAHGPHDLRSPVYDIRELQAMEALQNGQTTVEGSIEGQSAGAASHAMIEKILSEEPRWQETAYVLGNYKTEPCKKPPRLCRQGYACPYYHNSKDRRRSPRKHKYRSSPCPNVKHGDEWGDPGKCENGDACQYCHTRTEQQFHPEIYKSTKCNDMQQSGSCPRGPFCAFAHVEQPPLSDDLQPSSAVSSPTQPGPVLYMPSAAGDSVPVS
| Oligonucleotide | bound/input enrichment |
| --- | --- |
| UUUGAAGAAGGUGUGGGGAAACCUGCCAAGCAACUCCAAGAUCUGAGGAAUGCAUCCCGACUUAUUCGUGUGAAUCCUGAAAGUACAACAUCAGUGGUCUAAUGCUUGGGUCUGUUUAUA | 0.0645 ratio |
| AAAAACAAAAUUAAAAGCUAUUCAAUUCUGCAUGGAAUAUAUCUGCUGUCAUCUUAAUCUCCGUUUGGAUCAACCUCAUUUAUUUAUCUUAAAAUUAACCAGCUUUCUCAGUUCCAUCCA | 2.18 ratio |
| UUUAUUUUUAUUUUUAUUUUAUUUAUUUAAAAAUCUUGAUCUUUUUUACUUGUUUCAUCACACCGCUCAGAGUAGGUCCUCAGAAAUUGUUCAUGAUUUUUAAAACAAAGGCCUUGGGCA | 3.72 ratio |
| AAAUAAAUAUUUAAUUUUUUAAAUUGCUCUUGUAUAAUCAGAUGCCCCUUUUAGUAUUAUUUCCGAAGCGUUGGGAGGGUUUUGCCUAAAGUACAAUUUAUCGGGAAAAACUAGAUUUUA | 8.35 ratio |
| AUCCAGGCCCUUCGCUGGGUGAGUGAGAAUAUUGCCUUCUUUGGAGGAGAUCCCCGCCGAAUUACUGUCUUUGGCUCUGGCAUCGGUGCAUCCUGUGUCAGUCUCCUUACACUGUCUCAU | 0.141 ratio |
| AGAAGUACACAGGCUGCUACCCAAGUUGUUCUGAAUGUUCCUGAAACAAGAGUAACAUGUUCCGAAAGUGGACUCAGAGUAGCUUCGGAAGACUCUGGGCUCUCAACAUGCACAGUUGGA | 0.109 ratio |
| GAAGGGGUCUUGGUGUUUAAAGCAUAAGUUACCUGUUUGCACUGUUUUCAAAUAGGAAACAACCGUGGGCACGGUGAACAUCUAAUGUAAACGUGUGUUUUCUUUUGUCAUGCUCUUGAG | 0.18 ratio |
| ACCCAAGUUGGAGUCAUUCGAUGCCCAGUUUGCAGUCAAGAGUGUGCUGAGAGACACAUCACCGACAACUUUUUUGUGAAGGACACCACUGAAGUUCCUAGUAGUACAGUAGAAAAGUCU | 6.79 ratio |

Study 2
Target: Sal-like protein 4, full length isoform B (SALL4, Homo sapiens, UniProt Q9UJQ4-2, residues 1-616)
Method: universal PBM
Form: double-stranded DNA, one strand shown
Sample: in vitro
Concentration: not given
Setting: 8-mer, flanks averaged, mean of replicates
Direction: higher = stronger binding
Residues (chain): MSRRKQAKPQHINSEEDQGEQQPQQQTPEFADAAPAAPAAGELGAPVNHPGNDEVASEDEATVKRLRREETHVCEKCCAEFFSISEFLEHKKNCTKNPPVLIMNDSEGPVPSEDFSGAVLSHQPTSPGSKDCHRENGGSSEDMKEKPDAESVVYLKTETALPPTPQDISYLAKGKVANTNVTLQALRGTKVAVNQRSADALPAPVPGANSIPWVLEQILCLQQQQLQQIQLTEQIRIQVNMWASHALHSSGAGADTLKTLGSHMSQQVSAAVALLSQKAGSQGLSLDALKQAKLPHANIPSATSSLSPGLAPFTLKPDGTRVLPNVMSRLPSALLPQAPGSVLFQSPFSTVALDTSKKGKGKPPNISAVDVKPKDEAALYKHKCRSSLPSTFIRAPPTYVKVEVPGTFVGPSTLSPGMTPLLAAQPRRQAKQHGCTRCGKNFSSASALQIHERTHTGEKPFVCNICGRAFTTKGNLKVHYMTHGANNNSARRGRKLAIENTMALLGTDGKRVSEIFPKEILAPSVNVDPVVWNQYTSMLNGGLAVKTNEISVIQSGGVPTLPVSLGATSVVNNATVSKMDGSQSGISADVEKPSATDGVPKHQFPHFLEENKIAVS
| Oligonucleotide | E-score |
| --- | --- |
| AAGCGATG | -0.145 |
| GCGTAGAC | -0.177 |
| AAGCCATC | -0.0189 |
| CAAGGCGC | -0.145 |
| TATCGGCA | 0.0327 |
| TATGAGGA | 0.237 |
| AGTACCCC | -0.307 |
| TGATTCCA | -0.0237 |
| ATTTGCTA | 0.257 |
| CTCGATTA | 0.107 |
| AGAAATGA | 0.281 |
| CGATTTCA | 0.0459 |
| CTCGGACA | -0.0639 |
| CGAATCCC | -0.232 |
| GCTGGTGA | -0.158 |
| ATCACCAA | 0.126 |
| AATCGGAG | -0.0878 |

Study 3
Target: Prothrombin, mature alpha-thrombin (F2, Homo sapiens, UniProt P00734)
Method: aptamer microarray, sandwich
Form: DNA with 2'F-ANA
Sample: in vitro
Concentration: 200 nM
Setting: whole 15-mer aptamer, many near background
Added: Cy3 exosite-II aptamer, 400 nM
Direction: higher = stronger binding
Oligonucleotide: GGTTGGTGTGGTTGG
| Modification | mean fluorescence intensity [a.u.] |
| --- | --- |
| 2'F-ANA at 2 4 5 6 7 9 11 13 | 83.8 |
| 2'F-ANA at 2 3 7 9 14 15 | 395 |
| 2'F-ANA at 2 4 7 9 10 11 13 14 15 | 63.1 |
| 2'F-ANA at 2 4 5 7 12 13 | 107 |
| 2'F-ANA at 7 8 9 11 12 14 15 | 250 |
| 2'F-ANA at 3 7 8 11 12 15 | 1210 |
| 2'F-ANA at 1 2 4 11 15 | 94.1 |
| 2'F-ANA at 1 2 4 6 8 11 13 14 | 68.1 |
| 2'F-ANA at 1 2 4 7 9 12 14 | 66.4 |
| 2'F-ANA at 3 7 8 9 11 12 13 15 | 1120 |
| 2'F-ANA at 1 2 3 5 8 11 12 13 | 80.3 |
| 2'F-ANA at 4 6 9 10 14 15 | 60.3 |
| 2'F-ANA at 2 3 4 8 10 11 12 | 267 |

Mixed results
| Molecule | target | test | system | conditions | scale | measurement | value |
| --- | --- | --- | --- | --- | --- | --- | --- |
| PhoQ, residues 284 288 289 292 302 303 SIHLQL | PhoP, residues 12 14 15 18 19 LHATL (Escherichia coli, UniProt P23836) | Sort-seq, refers to: YFP reporter | E. coli | PhoQ-PhoP variant library, added: 10 µM Mg2+ | relative to: high Mg2+ state, higher = stronger signaling | fold induction | 3.47 |

For quick reference, copied from above (study 2):
| Oligonucleotide | E-score |
| --- | --- |
| TATGAGGA | 0.237 |
| CTCGATTA | 0.107 |
| ATTTGCTA | 0.257 |
| AGAAATGA | 0.281 |
| CGATTTCA | 0.0459 |
